Experimental data of several laboratories.
Each numbered part is a random draw from the data of one study; scales do not carry over between parts.

Block 1
Target: RING finger protein unkempt homolog, zinc fingers 1-6, GST-SBP tag (UNK, Homo sapiens, UniProt Q9C0B0, residues 30-357)
Method: RNA Bind-n-Seq
Form: RNA
Sample: in vitro
Tested at: not given
Setting: RNA with constant flanks, ends assumed
Relative to: input RNA pool
Reading: higher = stronger binding
Construct (chain): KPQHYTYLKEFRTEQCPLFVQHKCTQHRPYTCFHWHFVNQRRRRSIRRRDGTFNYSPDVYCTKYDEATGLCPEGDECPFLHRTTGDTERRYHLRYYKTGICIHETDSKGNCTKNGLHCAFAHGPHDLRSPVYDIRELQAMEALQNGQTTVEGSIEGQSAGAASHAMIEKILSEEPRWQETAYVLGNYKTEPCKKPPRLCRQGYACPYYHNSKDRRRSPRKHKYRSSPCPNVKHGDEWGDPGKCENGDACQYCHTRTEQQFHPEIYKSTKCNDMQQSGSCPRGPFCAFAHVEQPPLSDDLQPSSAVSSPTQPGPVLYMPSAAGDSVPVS
| Strand | bound/input enrichment [ratio] |
| --- | --- |
| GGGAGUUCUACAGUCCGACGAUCGGGACGAUUCAUCUCUUUCGAAAGCCACAGAGAUCUUUUUUUGGAAAGUUACUACAGGAAUUCCGACUUGUCGCAGCUGACCGGAGGUCCUGGAAGAUCCUUCUGUUCGGUGCAAUCAACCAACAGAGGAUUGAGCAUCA | 0.094 |
| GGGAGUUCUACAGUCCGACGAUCCCCUCUGUCUGUGACACCACCAUUCCUCUGCUGCCACCCUUUCAGGAAGUCUAUGGUUUUCCGUUUAAAUUAAAGGAAUUGUUACUGUGGUGGGAAUAUGAAAUAAAGGAAGAAAAGGCCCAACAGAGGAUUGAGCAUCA | 0.434 |
| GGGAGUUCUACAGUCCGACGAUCAUUUUUUAUGUAGGUGAGCUAACACAGUGUAUCUAAUUGAAGAAUUCUGAUUAAUUUGUAACCGAUAAGUUGUAUAAAAUUUUCAUACCUUAAAGUGUUUUAGAUUACUCUUCAAGUGAACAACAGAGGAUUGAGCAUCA | 0.328 |
| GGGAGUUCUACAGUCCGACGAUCGUUGUUUUUGUUUUGAGACAGGGCCUCACUGUGCGGCCCUGGCUGGCCUGGAACUUGCUAUACCGACCAGGCUAACCUGGAACUCAGCGAACUGUCUGCCCAGCCUUCUUUGGUUUUAUUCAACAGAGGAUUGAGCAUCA | 0.092 |
| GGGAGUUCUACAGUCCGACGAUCAAAGAAAGAAAACCCUCUGUGCACGUUGUCAUGAACUUGCCAGCAAAAGCUAUAGAGUUUCUCCGUGCUUUCAAGUGGCUUUUAGAUGGGCAGCCAUGCAGCAGUGAGUUCCUUCCCAUACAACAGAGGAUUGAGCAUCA | 0.101 |
| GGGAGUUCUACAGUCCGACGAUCGUUUAUUCUCAGAGCACUGCUCUCACUCAUAAGCAGUCUUAUUAUUCCAUUGCCAAAUGUGCCGCUGCCCUUACUCGAGCUUGCCCUAAAGAGGGACCCGCCGUAGUAGGUCAGUUUAUUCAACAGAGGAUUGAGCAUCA | 0.32 |
| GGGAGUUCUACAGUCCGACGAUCAACAACAUCAAGGAAGUACUUCUGUUUCCUGCCAUGAAACCCGAAGACAAGAAGGAGAAUGCCGCAACCACUGAUACACUGGAAAGCACAACAGUUGGCACUUCUGUCUAGAAAAUAAUACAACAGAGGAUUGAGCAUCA | 0.279 |
| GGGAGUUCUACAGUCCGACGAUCUCAGGGCCAAAACUGGAACCAAGGAUUUAAUAACUAUUAUGAUCAAGGAUAUGGAAAUUAUAACCGUGCCUAUGGUGGUGAUCAGAACUAUAGUGGCUAUGGCGGCUAUGAUUAUACUGGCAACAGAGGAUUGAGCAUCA | 0.274 |

Block 2
Target: RNA binding protein fox-1 homolog 2, RRM domain, GST-SBP tag (RBFOX2, Homo sapiens, UniProt O43251-10, residues 100-194)
Method: RNA Bind-n-Seq
Form: RNA
Sample: in vitro
Tested at: 365 nM
Setting: natural RNA segment, single round, ends assumed
Relative to: no-protein control
Reading: higher = stronger binding
Residues (chain): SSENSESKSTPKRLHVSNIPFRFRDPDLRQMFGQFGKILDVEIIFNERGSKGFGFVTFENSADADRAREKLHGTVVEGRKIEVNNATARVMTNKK
| Strand | RBNS enrichment (R) |
| --- | --- |
| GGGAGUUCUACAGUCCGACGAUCAAGCAAGCAAAAUGCAAACCAAACCAUUAUUCAUUUAUUGGCUUAAGUAUGCUUUCUCCUGAAAACUUUAGCAUUGGGUGCAAAUAUUCAGUAUGGUUCUCGGAGUCCAAUGGAAUUCUCGGGUGCCAA | 0.339 |
| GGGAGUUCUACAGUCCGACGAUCCAUGUCUUUGGCCAUGUAGAUUAAGUGUAGGCGUCCGGUUCAUUCUUACCUGUGUUAGGCCAUGUUAUUUUAUAGCGAAGUCAUGUUCGAUAGGGAUGGUAUGAAAUGCUUGGAAUUCUCGGGUGCCAA | 0.325 |
| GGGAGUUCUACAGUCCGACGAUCAAAAUCCUCUGGCUGGCUAACUGGAAGCAUGUAGGAGAAUCCAAGCGAGGUCAACAGAGAAGGCAGGAAUGUGUGGCAGAUUUAGUGAAAGCUAGAGAUAUGGCAGCGAAUGGAAUUCUCGGGUGCCAA | 24.1 |
| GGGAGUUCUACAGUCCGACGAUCAAUGCACUUGUUGUCUGUCUUCUUUAAUCAAAUCACAUCUUAUAUACAGCAGUCAGAGAUGAGUAUACUAGAAUCAUGGAUUGCUGGAGGUCUUUUAAUCUGAUGUUCUCUGGAAUUCUCGGGUGCCAA | 0.539 |
| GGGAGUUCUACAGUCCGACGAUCUUACUCCUAGUCCUACCAGUAAGGCGUCCACUUGCAAUGGUAACUGAGUCCACAAACAGCUGUUAGAACCUAGACAGCAGCAUGACUGGCUCAGAGCUCUUGCCCAUGAGUGGAAUUCUCGGGUGCCAA | 0.811 |
| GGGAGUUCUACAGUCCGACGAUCUUGUUGGGAGUGCUUUAUUUUUUAAAAGCAAACCUAAAUGAAACUAUUUUUCCCCUUAAAAUAGGAGAGAGCCAAAAUUGACCAAGGGUAUUCUGCAGCGAACCGGAGACUGGAAUUCUCGGGUGCCAA | 0.398 |
| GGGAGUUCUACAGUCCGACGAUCUUCCACAAAAUCAGUGUCCUGUUUGGGCCAGUGUCUACAGAGCCUCAGUCCCACUUGGUUUCUGAGUGCCUCUUUUCUCUUCUGUGUCUUCUCUUCCCUUGUCCUUCCUCUGGAAUUCUCGGGUGCCAA | 0.317 |
| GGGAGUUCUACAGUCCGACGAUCCUUCUCUGCUUAUCCCCAGGCAGCAGAUGCUGAGCUUCCCCCACCUCCUGCAGACAGUGCUGCACAUCAUCCAGGUAGUCAUCAGCUACUUCCUCAUGCUCAUCUUCAUGUGGAAUUCUCGGGUGCCAA | 0.577 |
| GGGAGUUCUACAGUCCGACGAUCAUAAAAGAACUCAACUUUUACACUGAUAAAAUACUCUAGCUUGGGCCAGAGAAGACAGUGCUCGUUAGCACUGGUCCAGGAAACCCUGGCUUGCUUUCCAAGCCCAAUGAUGGAAUUCUCGGGUGCCAA | 0.456 |
| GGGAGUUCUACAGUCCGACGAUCAGUGCAGAUCCCCAUUUGCAGUAAGAUUGUACCUCAGCGGUACAAUUCCUCACCAAGGAAGUGGCUGCAGGGACACUGGUGCCACGGCUCCUGGGCCAGCCCUUAUGUCUUGGAAUUCUCGGGUGCCAA | 0.334 |
| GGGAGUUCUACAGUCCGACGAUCAAUUACCACUAAUUUACCUGGCAGUGAUGUCAAAUUGACUGUAAUUAGCAGGUAGAAAAUUAUUUGUAUUAUAUUCAUCUGAUUCCUAUACUGGAUGAGCAAGGAGCAUGUGGAAUUCUCGGGUGCCAA | 0.413 |
| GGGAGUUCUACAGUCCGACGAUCAUUCUCAGCCCAGUGGGCCUCAGCUGCCUUUGGUAGGUUCCAUCCCUUAGCCAUUCCCACCCAUCUGUAACAAUGAUCUGGGAGCUCGGCUCCAAGCAUCCCUGGUUACCUGGAAUUCUCGGGUGCCAA | 2.07 |

Block 3
Target: Interferon regulatory factor 7, full length, phosphomimetic (IRF7, Homo sapiens, UniProt Q92985, residues 1-503, S471D/S472D/S475D/S476D/S477D/S483D/S484D/S487D)
Method: protein-binding microarray
Form: double-stranded DNA, one strand shown
Sample: in vitro
Tested at: 2200 nM top
Setting: 60-bp whole probe
Together with: salmon DNA 0.4 mg/ml
Relative to: random background probes
Reading: higher = stronger binding
All sequences stand within: GCCTAGCAC … GTCTTGATTCGCTTGACGCTGCTG
Residues (chain): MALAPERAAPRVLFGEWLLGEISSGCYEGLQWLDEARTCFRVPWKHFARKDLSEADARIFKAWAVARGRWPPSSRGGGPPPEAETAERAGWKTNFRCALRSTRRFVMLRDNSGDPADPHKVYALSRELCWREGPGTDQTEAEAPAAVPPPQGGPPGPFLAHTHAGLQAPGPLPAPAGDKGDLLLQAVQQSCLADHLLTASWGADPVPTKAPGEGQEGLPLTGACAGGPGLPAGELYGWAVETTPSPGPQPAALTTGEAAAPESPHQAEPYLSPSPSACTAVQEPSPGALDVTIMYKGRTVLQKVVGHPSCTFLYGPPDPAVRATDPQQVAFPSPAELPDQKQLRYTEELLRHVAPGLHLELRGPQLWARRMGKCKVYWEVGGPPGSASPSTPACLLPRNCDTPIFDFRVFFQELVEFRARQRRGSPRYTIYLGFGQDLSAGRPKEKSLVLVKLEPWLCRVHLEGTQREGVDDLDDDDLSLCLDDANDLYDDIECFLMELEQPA
| Strand | fitted relative affinity |
| --- | --- |
| TTGGGTATCGGGTATCGGTTAGTGCTA | 0.648 z-score |
| TTAGGACTGGGGACTGGGTGAGTGCTA | -0.895 z-score |
| TTAGTTTTCGGGTATCGGTTAGTGCTA | 6.73 z-score |
| TTAGGACTGGGGTATCGTTTAGTGCTA | -0.159 z-score |
| TCAAGTTTCTCTTTCCTACTGTGCTAG | 6.51 z-score |
| ACTAATTTCCATTTTCTAAAGTGCTAG | 3.39 z-score |
| CAGAATCTCTCATGTTACATTGTGCTA | 0.583 z-score |
| TCACCTTTCCTTTGCCTACTGTGCTAG | 3.35 z-score |
| TTAGGTGTCCTTATCCTTTAGTGCTAG | 0.786 z-score |
| GACGGTATCCAACTGCTGACGTGCTAG | 0.543 z-score |
| TTAGATATCGGGTTTCGATGAGTGCTA | 0.749 z-score |
| TCATAGCTTCCTTTCGCACTGTGCTAG | 2.46 z-score |
| GTAGATTCCAGTTTCGATTAGTGCTAG | 6.81 z-score |
| TCATGTGTCAACTTTCTCACTGTGCTA | 1.36 z-score |
| CCCACCATCTAGTTCTGCTTGTGCTAG | 0.711 z-score |
| GACGGTATTGGTCTCGGGACGTGCTAG | 0.0225 z-score |
| GACGGAGTGGGGTATCGGGACGTGCTA | -0.697 z-score |
| CTAGATATCAGTATCGATTAGTGCTAG | 0.534 z-score |
| GACGGTCTCGGACTGTGGACGTGCTAG | -0.331 z-score |
| GACGGACTGCTTCTCCTGACGTGCTAG | 0.672 z-score |
| TCCACTTGTCTTTTCATTTTGTGCTAG | 3.36 z-score |
| CTCGTGGTCCTGCCCTGCCTGTGCTAG | -0.426 z-score |
| TTAGATTTCCGTATCGATTAGTGCTAG | 1.53 z-score |
| TTTTTTTTCTAACTAAAAATGTGCTAG | 1.18 z-score |
| TAAGATCTCAGTATCGATTAGTGCTAG | 0.231 z-score |

Block 4
Target: Prothrombin, mature alpha-thrombin (F2, Homo sapiens, UniProt P00734)
Method: aptamer microarray, sandwich
Form: DNA with 2'F-ANA
Sample: in vitro
Tested at: 200 nM
Setting: whole 15-mer aptamer, many near background
Together with: Cy3 exosite-II aptamer, 400 nM
Reading: higher = stronger binding
Strand: GGTTGGTGTGGTTGG
| Modification | mean fluorescence intensity [a.u.] |
| --- | --- |
| 2'F-ANA at 1 7 8 9 12 14 | 76.6 |
| 2'F-ANA at 1 3 4 9 10 11 14 15 | 57.9 |
| 2'F-ANA at 1 4 6 9 10 11 14 15 | 74.7 |
| 2'F-ANA at 1 7 8 9 10 11 15 | 55.1 |
| 2'F-ANA at 2 4 8 9 15 | 364 |
| 2'F-ANA at 1 4 9 12 15 | 246 |
| 2'F-ANA at 2 4 5 6 7 8 10 11 12 14 | 49.4 |
| 2'F-ANA at 3 4 5 7 8 9 10 11 | 107 |
| 2'F-ANA at 1 2 3 4 6 7 8 9 11 13 14 | 150 |
| 2'F-ANA at 3 4 6 10 11 12 | 289 |
| 2'F-ANA at 1 2 4 5 7 8 9 11 13 | 48.8 |
| 2'F-ANA at 2 6 7 8 9 11 12 | 590 |
| 2'F-ANA at 1 2 3 4 7 11 13 | 131 |
| 2'F-ANA at 1 2 8 9 10 11 13 14 | 69.9 |
| 2'F-ANA at 4 6 7 10 11 12 14 | 59.4 |
| 2'F-ANA at 1 2 3 4 6 10 11 13 14 | 51.9 |
| 2'F-ANA at 2 3 4 9 10 12 13 | 251 |
| 2'F-ANA at 2 4 11 12 14 15 | 132 |
| 2'F-ANA at 2 6 9 12 13 14 15 | 143 |
| 2'F-ANA at 1 2 3 4 5 6 8 13 | 64.8 |
| 2'F-ANA at 2 6 8 9 11 12 14 | 145 |
| 2'F-ANA at 1 2 4 6 8 10 12 14 | 156 |
| 2'F-ANA at 1 3 4 8 11 12 15 | 382 |
